Experimental data collected from several papers.
Protocols differ between the studies behind these lines. ± gives the spread as reported.

For `COC(=O)C1=CO[C@@H](O)[C@@H]2C(Cn3cc(C(O)(c4ccccc4)c4ccccc4)nn3)=CC[C@H]12`, the viability was > 78% (SK-N-SH; MTT; 0.075 to 0.6 µM, 24 h, added: H2O2).
The viability of `O=C1CC(c2ccccc2)Oc2cc(O[C@@H]3O[C@H](CO)[C@@H](O)[C@H](O)[C@H]3O)ccc21` (some centres unmarked) is reported as 100% (Vero E6-GFP; highest tested, 72 h, added: CP-100356 2 µM; reference: untreated).
The viability of `O=c1c(NCCc2ccccc2)c(NC2CCN(Cc3ccccc3)CC2)c1=O` is reported as 121 ± 1.55% (SH-SY5Y; MTT; 6.25 µM, 24 h).
`Cc1nc(-c2ccc(Cl)cc2)nc2sc3c(=O)n(CCN4CCOCC4)cnc3c12` has a viability of 93 ± 0.45% (SH-SY5Y; 100 µM, 24 h).
For `N=C(N)NCCC[C@H](NC(=O)[C@H](CCCNC(=N)N)NC(=O)[C@H](CCCNC(=N)N)NC(=O)[C@H](CCC(N)=O)NC(=O)[C@H](CCCNC(=N)N)NC(=O)[C@H](CCCNC(=N)N)NC(=O)[C@H](CCCCN)NC(=O)[C@H](CCCCN)NC(=O)[C@H](CCCNC(=N)N)NC(=O)CNC(=O)[C@H](Cc1ccc(O)cc1)NC(=O)[C@@H](N)CS)C(=O)O`, viability read “no effect” (SV-HUC-1; MTT; concentration not given).
`O=C1CCCC2=C1C(c1c[nH]c3ccccc13)n1c(sc(=Cc3c[nH]c4ccccc34)c1=O)=N2` (centres unmarked) has a viability of 95.4% (SH-SY5Y; cell growth or viability, MTT; 40 µM).
With `COC(=O)C1=CO[C@@H](OC(C)=O)[C@@H]2C(Cn3cc(COCc4ccc(OC)c(OC)c4)nn3)=CC[C@H]12` the viability was > 78% (SK-N-SH; MTT; 0.075 to 0.6 µM, 24 h, added: H2O2).
`O=c1c(NCCc2ccc(O)cc2)c(NC2CCN(Cc3ccccc3)CC2)c1=O` has a viability of 97.85 ± 0.46% (SH-SY5Y; MTT; 6.25 µM, 24 h).
For `CC[C@H](C)[C@H](NC(=O)[C@@H](NC(=O)[C@H](Cc1ccc(O)cc1)NC(=O)[C@@H]1CSSC[C@@H]2NC(=O)[C@@H]3CCCN3C(=O)[C@H](CC(N)=O)NC(=O)[C@H](Cc3ccccc3)NC(=O)[C@H](CCC(=O)O)NC(=O)[C@H](C(C)C)NC(=O)[C@H](CC(=O)O)NC(=O)[C@@H]3CSSC[C@H](NC(=O)[C@H]([C@@H](C)O)NC(=O)[C@H](CC(C)C)NC(=O)[C@@H]4CCCN4C(=O)[C@@H]4CCCN4C(=O)[C@H](CSSC[C@H](N)C(=O)N4CCC[C@H]4C(=O)NCC(=O)N[C@@H](CCC(=O)O)C(=O)NCC(=O)N[C@@H](CCC(=O)O)C(=O)N[C@@H](CCC(N)=O)C(=O)N3)NC2=O)C(=O)N[C@@H]([C@@H](C)CC)C(=O)N2CCC[C@H]2C(=O)NCC(=O)N[C@@H](CC(=O)O)C(=O)N2CCC[C@H]2C(=O)N[C@@H](Cc2ccc(O)cc2)C(=O)NCC(=O)N[C@@H]([C@@H](C)CC)C(=O)N1)[C@@H](C)CC)C(=O)O`, viability read “not toxic” (HK-2; MTT; up to 50 µM, 48 h).
`COC(=O)C1=CO[C@@H](O)[C@@H]2C(Cn3cc(C4(O)CCCC4)nn3)=CC[C@H]12` has a viability of 78.3 ± 1.8% (SK-N-SH; MTT; 0.15 µM, 24 h, added: H2O2 250 µM).
The viability of `O=c1c(NCc2ccc(Br)cc2)c(NC2CCN(Cc3ccccc3)CC2)c1=O` is reported as 84.74 ± 0.63% (SH-SY5Y; MTT; 12.5 µM, 24 h).
`COC(=O)C1=CO[C@@H](OC(C)=O)[C@@H]2C(Cn3cc(CCCO)nn3)=CC[C@H]12` gave a viability of > 78% (SK-N-SH; MTT; 0.075 to 0.6 µM, 24 h, added: H2O2).
For `O=c1c(Nc2ccccc2)c(NC2CCN(Cc3ccccc3)CC2)c1=O`, the viability was 124.3 ± 0.49% (SH-SY5Y; MTT; 6.25 µM, 24 h).
`CC[C@H](C)[C@H](NC(=O)[C@H](Cc1ccccc1)NC(=O)[C@H](CO)NC(=O)CN)C(=O)N[C@@H](Cc1c[nH]cn1)C(=O)N[C@@H](CO)C(=O)N[C@H](C(=O)N1CCC[C@H]1C(=O)N[C@@H](CCCNC(=N)N)C(=O)N[C@@H](Cc1c[nH]cn1)C(=O)O)C(C)C` — result for viability: “no effect” (bEnd.3; CCK-8; 100 µg/mL).
